Published values of several laboratories.
Every numbered part comes from another study and shows a few of its results, in no order. Positions count from the first letter of the parent shown.

Block 1 — technique: protein binding microarray; molecule type: double-stranded DNA, one strand shown; sample: in vitro; tested at: not given; relative to: not given; reading: higher = stronger binding; endpoint: E-score
Target: Histone acetyltransferase KAT6A, both winged helices, GST fusion (KAT6A, Homo sapiens, UniProt Q92794, residues 1-181)
Setting: 8-mer, flanks averaged, mean of 2 arrays, mostly near background
Construct (chain): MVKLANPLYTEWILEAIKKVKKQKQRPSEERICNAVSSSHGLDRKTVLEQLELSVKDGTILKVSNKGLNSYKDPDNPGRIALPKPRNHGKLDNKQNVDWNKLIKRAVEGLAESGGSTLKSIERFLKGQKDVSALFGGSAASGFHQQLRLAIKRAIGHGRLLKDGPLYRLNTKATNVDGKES
CACCGGGA: 0.149
ACCACGCC: 0.0926
ACGTGATA: 0.00483
CCCGGACC: -0.0397
ATACGGTG: 0.138
CGTCAAAC: 0.183
ACATCCCT: -0.0979
AGCTTCGC: -0.0267
CTAAGTAG: -0.253
ACGATTAC: -0.0396
TCATGCAA: -0.0969
GGGGCTCA: -0.13
CACCTCAC: 0.0244
AGAGGTCC: -0.0295
CAATACTG: -0.135
GATAATTA: 0.00213
AGAAAGTC: -0.038
CCCATCAA: -0.182

Block 2 — target: CCND2, cyclin fold, Cln2 fusion (human); technique: yeast growth competition, sequencing; sample: yeast; setting: weak parent motif; relative to: not given; reading: higher = stronger binding; endpoint: normalised enrichment score
Starting sequence: PKN2 docking peptide (human); VSAVQKLDFSDTM
VSAVQKLDWSDTM [F9W]: -0.0236
VSAVQHLDFSDTM [K6H]: 0.2
VSAVQKLDFSDTC [M13C]: 0.697
VSACQKLDFSDTM [V4C]: 0.186
VSAVQKLDSSDTM [F9S]: 0.198
VSAVQKLDFSDTA [M13A]: 0.537
VSAVQKLCFSDTM [D8C]: 0.286
RSAVQKLDFSDTM [V1R]: 1.23
VSAVQKLDISDTM [F9I]: 0.139
VAAVQKLDFSDTM [S2A]: 0.691
VSAVQKSDFSDTM [L7S]: -0.123
VSAVQKHDFSDTM [L7H]: 0.35
VSAEQKLDFSDTM [V4E]: 0.17
VSAVQKLDFDDTM [S10D]: 0.539
VSAVQKLDASDTM [F9A]: 0.0635
VKAVQKLDFSDTM [S2K]: 0.515
VSAVQKLDFEDTM [S10E]: 0.737
VSAVQKLEFSDTM [D8E]: 0.264
VSAVQKFDFSDTM [L7F]: 0.545
VSWVQKLDFSDTM [A3W]: 0.371
VSAVQKLDFSDYM [T12Y]: 0.826
VSAVQKLDFSDTN [M13N]: 0.638
VSDVQKLDFSDTM [A3D]: -0.537
VSAVQKLDFSDWM [T12W]: 0.878
VSAVQKLDFSTTM [D11T]: 0.352

Block 3 — technique: RNA Bind-n-Seq; molecule type: RNA; sample: in vitro; tested at: 1 µM; setting: whole 134-nt RNA, ends assumed; with: 150 mM KCl; relative to: input library; reading: higher = stronger binding; endpoint: log2 enrichment
Target: Ras GTPase-activating protein-binding protein 1, RRM domain (G3BP1, Homo sapiens, UniProt Q13283)
Sequence of UniProt Q13283 (whole entry, looked up): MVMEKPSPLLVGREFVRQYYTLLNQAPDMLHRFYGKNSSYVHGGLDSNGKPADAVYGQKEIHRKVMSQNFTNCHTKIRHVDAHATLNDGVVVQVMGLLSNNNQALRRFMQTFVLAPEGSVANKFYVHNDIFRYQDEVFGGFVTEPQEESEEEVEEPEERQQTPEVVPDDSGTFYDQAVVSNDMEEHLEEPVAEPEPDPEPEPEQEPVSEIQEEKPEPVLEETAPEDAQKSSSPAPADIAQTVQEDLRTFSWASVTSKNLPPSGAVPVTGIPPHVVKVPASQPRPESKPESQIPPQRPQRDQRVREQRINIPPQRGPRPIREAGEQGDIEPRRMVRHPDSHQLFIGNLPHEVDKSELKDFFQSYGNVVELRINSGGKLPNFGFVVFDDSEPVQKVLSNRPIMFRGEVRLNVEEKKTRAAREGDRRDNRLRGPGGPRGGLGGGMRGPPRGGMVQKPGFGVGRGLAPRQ
Constant ends, left off below: GGGAGUUCUACAGUCCGACGAUC … UGGAAUUCUCGGGUGUCAAGG
GUCCUGUGCUACACAUCGUAUGUACCGAAUCGGGAAAAAAGGAAAAAAGGAAAAAAGGAAAGUAUUAUGUUACGCCGUUCGGAUCUGCAC: 0.0617
AGUCCUGUGCUACACAUCGUAUGUACCGAAUCGGGAGGGAAAAAGGGAAAAAAAGGGAAAGUAUUAUGUUACGCCGUUCGGAUCUGCACU: 0.454
UCCUGUGCUACACAUCGUAUGUACCGAAUCGGGGAAAAAGGGGUGGGGUUUUUUUGGGGAAAGUAUUAUGUUACGCCGUUCGGAUCUGCA: 0.654
UAACUUUAGAGGAGGAUCUGAUGGAUAUGGCAGUGGACGUGGAUUUGGGGAUGGCUAUAAUGGGUAUGGAGGAGGACCUGGAGGUGGCUA: -0.312
UGGGAGGUGGAUUUUGUUUCUUUUUUUAGCUCAUUUCCAGGGGUGGGAAUUUUUUUUUAAUAUGUGUCAUGAAUAAAGUUGUUUUUGAAA: 1.07
CCUCAAGUCCUGUGCUACACAUCGUAUGUACCGAAUCGGAAAGGAAAGGAGGAAAGUAUUAUGUUACGCCGUUCGGAUCUGCACUUCCAG: -0.186
GCAGGAAGUAAAAACAAAUGGAAAUGAAACGGAUAGUGGCAGGGGUGGGGGUUGCUAAGGAAAGGGUGGGAUGGGAGUGGGUAAAGAGUU: 1.15
CCUCAAGUCCUGUGCUACACAUCGUAUGUACCGAAUCGGGAAGGAAGGAAGGGAAAGUAUUAUGUUACGCCGUUCGGAUCUGCACUUCCA: -0.264
CUGUGCUACACAUCGUAUGUACCGAAUCGGGGAAAAAAAGGGGAAAAAAAGGAAAAAAAGGGAAAGUAUUAUGUUACGCCGUUCGGAUCU: 0.147

Block 4 — technique: RNA Bind-n-Seq; molecule type: RNA; sample: in vitro; tested at: 365 nM; relative to: no-protein control; reading: higher = stronger binding; endpoint: RBNS enrichment (R)
Target: RNA binding protein fox-1 homolog 2, RRM domain, GST-SBP tag (RBFOX2, Homo sapiens, UniProt O43251-10, residues 100-194)
Setting: natural RNA segment, single round, ends assumed
Constant ends, left off below: GGGAGUUCUACAGUCCGACGAUC … UGGAAUUCUCGGGUGCCAA
Residues (chain): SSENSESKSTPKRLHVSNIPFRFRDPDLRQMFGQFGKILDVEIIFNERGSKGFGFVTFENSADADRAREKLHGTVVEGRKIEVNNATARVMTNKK
AGAAAGGGACUUUUUUUCCUUUCUUUUCAUAAUGAAGCAGAUCAACUUAAAGGAUAAUAAAAUUUUUAAAGAAAAGAUAUUCUAAUGUACUCUCAAUAAUUCUACAGAAA: 0.763
UACUGCUGGCAACAUUCCUGCUCCACCUCCUGGAUGCCCUCCCAAUGCUGCUCAGCUUGCAGUCAUGCAGGGAGCCAACGUCCUCGUAACUCAGCGGAAGGGGAACUUCU: 0.295
CUUGGCAACUUUACUUGGCUGAAUGAACUCCAAUCGGAAACAAUUGCUUCAAGCCAGUUUUUCCUUUUUACCCUCCCCCAAUCCAUGAAAGCCUAAGUGUAAAUAUAUAU: 0.931
CCACUUAACUCCAGUGUGGAUGACAGAGCGAGACCCUGCCUCAAAAAAAAAAAAAAAAAAAGAAAGCCACACUUAUUCUUUUCAGUAACCUGCUAGUGCACAGGCUGUAC: 0.905
AUUCCUGUUGUGUUAUUUUUCUUAACUGGAGUGUGUGCUGCCUUUCAGGUACAAUUUUUGUGUAAUAAAAGCCAGUGCAUUAAGUUUAUAUAGACUACUUUCUAUGCAAG: 0.307
UAAUUCAGUGUCCCAAUGGUGUCCUAGGGAGGCAGCAGACGUUUCGUUUGUCCUCAGUAAGAGCUGAAUCCUUAAAAAUUUAAGAAACUACUUUCAGCUUCCUGCUCCAC: 0.249
AGUGUCCCUUUCCUCUCAGAGCCAAGUUCCAUUCCUGGAGUUAUCCUCUAGGCAUGAAGCCUUCCAGGGGCCGGGAUGGUAGGGAGUUUCACCCCUUCCUCCCUCCCCAA: 0.196
UCAGACCAGUUAGCACAGUAUUCUCUCAUCUGUGUCACUUUGUAAAACUAACUGUACUCUGUAUUUCUUAUUUGUACAUAUCAAUGUGAGAAAUCUCCCUUUUUUAUGUU: 0.455

A few entries again (block 4):
UACUGCUGGCAACAUUCCUGCUCCACCUCCUGGAUGCCCUCCCAAUGCUGCUCAGCUUGCAGUCAUGCAGGGAGCCAACGUCCUCGUAACUCAGCGGAAGGGGAACUUCU: 0.295
AGAAAGGGACUUUUUUUCCUUUCUUUUCAUAAUGAAGCAGAUCAACUUAAAGGAUAAUAAAAUUUUUAAAGAAAAGAUAUUCUAAUGUACUCUCAAUAAUUCUACAGAAA: 0.763
CUUGGCAACUUUACUUGGCUGAAUGAACUCCAAUCGGAAACAAUUGCUUCAAGCCAGUUUUUCCUUUUUACCCUCCCCCAAUCCAUGAAAGCCUAAGUGUAAAUAUAUAU: 0.931
CCACUUAACUCCAGUGUGGAUGACAGAGCGAGACCCUGCCUCAAAAAAAAAAAAAAAAAAAGAAAGCCACACUUAUUCUUUUCAGUAACCUGCUAGUGCACAGGCUGUAC: 0.905
AUUCCUGUUGUGUUAUUUUUCUUAACUGGAGUGUGUGCUGCCUUUCAGGUACAAUUUUUGUGUAAUAAAAGCCAGUGCAUUAAGUUUAUAUAGACUACUUUCUAUGCAAG: 0.307
UAAUUCAGUGUCCCAAUGGUGUCCUAGGGAGGCAGCAGACGUUUCGUUUGUCCUCAGUAAGAGCUGAAUCCUUAAAAAUUUAAGAAACUACUUUCAGCUUCCUGCUCCAC: 0.249
UCAGACCAGUUAGCACAGUAUUCUCUCAUCUGUGUCACUUUGUAAAACUAACUGUACUCUGUAUUUCUUAUUUGUACAUAUCAAUGUGAGAAAUCUCCCUUUUUUAUGUU: 0.455
